Published values gathered from unrelated publications.
Numbered parts are unrelated; each lists some results of a single study. Positions count from the first letter of the parent shown.

Block 1 — method: RNA Bind-n-Seq; molecule type: RNA; medium: in vitro; concentration: 200 nM; setting: whole 134-nt RNA, ends assumed; together with: 150 mM KCl; baseline: input library; direction: higher = stronger binding
Target: Ras GTPase-activating protein-binding protein 1, full length (G3BP1, Homo sapiens, UniProt Q13283)
UniProt Q13283, sequence (whole entry, looked up): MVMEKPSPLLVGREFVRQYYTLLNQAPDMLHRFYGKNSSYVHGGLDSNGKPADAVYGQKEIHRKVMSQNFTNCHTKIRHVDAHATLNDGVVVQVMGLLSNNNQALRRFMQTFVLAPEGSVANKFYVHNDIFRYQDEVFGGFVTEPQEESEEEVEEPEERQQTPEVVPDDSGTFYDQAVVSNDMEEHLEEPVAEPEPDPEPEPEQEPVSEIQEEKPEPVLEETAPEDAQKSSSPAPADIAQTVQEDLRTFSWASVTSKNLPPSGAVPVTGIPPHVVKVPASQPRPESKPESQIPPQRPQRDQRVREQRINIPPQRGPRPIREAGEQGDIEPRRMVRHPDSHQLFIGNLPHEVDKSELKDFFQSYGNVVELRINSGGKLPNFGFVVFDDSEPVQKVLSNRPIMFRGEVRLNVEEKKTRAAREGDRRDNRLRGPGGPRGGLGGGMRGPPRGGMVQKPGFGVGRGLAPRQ
Oligonucleotide	log2 enrichment
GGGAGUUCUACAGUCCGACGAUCCUCAAGUCCUGUGCUACACAUCGUAUGUACCGAAUCGGGAAAGGAAAGGAAAGGAAAGUAUUAUGUUACGCCGUUCGGAUCUGCACUUCCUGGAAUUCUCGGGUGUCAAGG	-0.816
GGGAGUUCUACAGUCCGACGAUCAGUCCUGUGCUACACAUCGUAUGUACCGAAUCGGAAAAAAAGGAAAAAGGAAAAAGGAAAGUAUUAUGUUACGCCGUUCGGAUCUGCACUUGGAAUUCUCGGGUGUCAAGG	-1.35
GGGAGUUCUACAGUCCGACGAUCCAAGUCCUGUGCUACACAUCGUAUGUACCGAAUCGGAAAAAGGUUUUUGGUUUGGAAAGUAUUAUGUUACGCCGUUCGGAUCUGCACUUCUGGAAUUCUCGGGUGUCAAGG	-1.24
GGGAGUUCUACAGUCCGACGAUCCCUGUGCUACACAUCGUAUGUACCGAAUCGGGGUUUUUUGGGGUUUUUUGGGUUUUUUGGGAAAGUAUUAUGUUACGCCGUUCGGAUCUGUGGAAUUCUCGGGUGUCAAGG	-0.403
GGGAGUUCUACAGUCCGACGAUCCACAGACAACACGCACCGACACAGACACAGAGGGAAGGGGUUGGGAUGGGGACAGGGUGCACAGCAGGGCGGGGUAGGACCCCAGCCCCUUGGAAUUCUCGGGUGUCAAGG	1.65
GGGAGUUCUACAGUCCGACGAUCGUCCUGUGCUACACAUCGUAUGUACCGAAUCGGCCCCCGGGCCCCCGGGGCCCCCGGGGAAAGUAUUAUGUUACGCCGUUCGGAUCUGCAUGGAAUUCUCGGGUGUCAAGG	-1.03
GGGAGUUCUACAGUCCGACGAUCUCCUGUGCUACACAUCGUAUGUACCGAAUCAAAUUUUUUUAAACCCCCAAAUUUUUAAAAAAGUAUUAUGUUACGCCGUUCGGAUCUGCAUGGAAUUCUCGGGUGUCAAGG	0.179
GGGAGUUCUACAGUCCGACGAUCUCCUGUGCUACACAUCGUAUGUACCGAAUCGGGGUUUUUUUGGGGUUUUUGGGGAGGGGAAAGUAUUAUGUUACGCCGUUCGGAUCUGCAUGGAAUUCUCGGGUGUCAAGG	0.634
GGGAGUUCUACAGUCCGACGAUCCAAGUCCUGUGCUACACAUCGUAUGUACCGAAUCGGGAAAAAAAGGGUGGGUGGGAAAGUAUUAUGUUACGCCGUUCGGAUCUGCACUUCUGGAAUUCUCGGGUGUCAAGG	0.547

Block 2 — method: universal PBM; molecule type: double-stranded DNA, one strand shown; medium: in vitro; concentration: 600 nM; direction: higher = stronger binding
Target: Sal-like protein 4, full length isoform A (SALL4, Homo sapiens, UniProt Q9UJQ4, residues 1-1053)
UniProt Q9UJQ4, sequence (whole entry, looked up): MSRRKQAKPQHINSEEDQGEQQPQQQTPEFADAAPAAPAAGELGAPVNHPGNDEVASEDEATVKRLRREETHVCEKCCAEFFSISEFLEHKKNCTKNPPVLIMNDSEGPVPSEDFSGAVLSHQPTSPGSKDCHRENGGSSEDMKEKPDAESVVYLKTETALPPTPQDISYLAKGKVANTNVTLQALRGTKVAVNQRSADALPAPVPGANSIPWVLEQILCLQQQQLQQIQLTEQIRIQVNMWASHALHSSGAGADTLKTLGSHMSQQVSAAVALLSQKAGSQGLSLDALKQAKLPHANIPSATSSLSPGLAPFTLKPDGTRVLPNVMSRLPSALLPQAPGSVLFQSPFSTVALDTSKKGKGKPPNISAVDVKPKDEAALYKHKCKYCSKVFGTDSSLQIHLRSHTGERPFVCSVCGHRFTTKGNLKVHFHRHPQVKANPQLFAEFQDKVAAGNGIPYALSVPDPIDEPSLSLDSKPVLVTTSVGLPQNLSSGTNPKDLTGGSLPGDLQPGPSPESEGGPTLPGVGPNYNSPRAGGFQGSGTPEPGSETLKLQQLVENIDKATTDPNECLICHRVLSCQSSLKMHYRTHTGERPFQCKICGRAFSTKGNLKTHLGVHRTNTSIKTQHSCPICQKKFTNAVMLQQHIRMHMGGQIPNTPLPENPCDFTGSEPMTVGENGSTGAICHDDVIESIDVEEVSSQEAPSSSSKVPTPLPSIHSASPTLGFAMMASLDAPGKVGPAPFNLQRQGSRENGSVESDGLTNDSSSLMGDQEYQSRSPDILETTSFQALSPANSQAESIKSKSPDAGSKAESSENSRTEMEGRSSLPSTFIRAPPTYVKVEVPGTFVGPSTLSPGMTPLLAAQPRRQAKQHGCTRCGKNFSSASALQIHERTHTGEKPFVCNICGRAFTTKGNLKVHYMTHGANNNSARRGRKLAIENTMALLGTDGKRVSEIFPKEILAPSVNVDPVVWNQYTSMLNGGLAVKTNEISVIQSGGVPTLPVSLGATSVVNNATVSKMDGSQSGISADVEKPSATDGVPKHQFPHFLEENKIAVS
Setting: 8-mer, flanks averaged, mean of replicates
Oligonucleotide	E-score
ACTCATTA	0.297
CGAGCCCG	-0.328
CCAAAAAA	0.305
GACTCAGC	-0.157
ACTCAGAC	0.0909
AATGAGAC	-0.0682
ATGCAGCC	-0.0783
AATAATAC	0.364
ACCAATAT	0.336
AACCTTGC	-0.11
GACTATGC	0.0268
GCGTGCCC	-0.345
ACTTCGCT	-0.0852
CATTTGGG	-0.0242
ACGGGCCT	-0.307
GAAGCCTA	-0.0626
AGCATGGC	-0.172
CTCCTTAC	0.0254
GGTATTAC	0.195
GAATAATC	0.235
AAACTCTG	0.0831
AAGTTCTC	-0.0669
CGGAGCTC	-0.257

Block 3 — method: RNA Bind-n-Seq; molecule type: RNA; medium: in vitro; concentration: 365 nM; baseline: no-protein control; direction: higher = stronger binding
Target: RNA binding protein fox-1 homolog 2, RRM domain, GST-SBP tag (RBFOX2, Homo sapiens, UniProt O43251-10, residues 100-194)
Setting: natural RNA segment, single round, ends assumed
Construct (chain): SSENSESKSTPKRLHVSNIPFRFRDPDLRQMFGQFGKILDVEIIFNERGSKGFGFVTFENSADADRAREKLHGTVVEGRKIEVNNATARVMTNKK
Oligonucleotide	RBNS enrichment (R)
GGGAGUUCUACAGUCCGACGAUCAGGCUUCUGCUCUCCUCAAAGCCAUACCCCCGCCUUUGGGCGGGCAUAGAGGGGUAGUGGAUGCUAGCCAGCAGCACGGAAAGAGCCUUUUUCUAAAGAAAAAGACAAAAUGGAAUUCUCGGGUGCCAA	0.31
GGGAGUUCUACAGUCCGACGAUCACUCAACAACCUCCCACCCCUGUCCUGCUGCAUGGUCCGGAGUCUGGGACCUACUUUGUUUUUUGUUAUUUAUGACCUUGUUUAAAGAAAAUAAAUAUCUCCCAACCUUUUGGAAUUCUCGGGUGCCAA	7.1
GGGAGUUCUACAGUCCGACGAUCGUUGGACAUGGAUUGACUGGGAAAAGGCCUGGGUCCAUUGGAGUAAAGAUAACCUAGUCGAUUGAAUUGGCCAUGGGAAGUUAGGUCACAGUCUUAUAAACAAAGUAAAUUGGAAUUCUCGGGUGCCAA	1.81
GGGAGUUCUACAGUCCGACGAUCUGUACAGGUUACGGUUCUAUGCAUAAACAUUUUAGAAAACAAACAUAGAAACUUAGGCACUUUGCUGACUCCUUUCUGAACUAUCAGACUGGCCAUUUGAAAGCCUAGUAUGGAAUUCUCGGGUGCCAA	0.31
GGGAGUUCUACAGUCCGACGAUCUUUUUCUGUAUAUUAACUUGGGGGAUAUCGUUAAUAUUUAGGAUAUAAGAUUUGAGGUCAGCCAUCUUCAAAAAAGAAAAAAAAAUUGACUCAAGAAAGUACAAGUAAACUGGAAUUCUCGGGUGCCAA	0.822
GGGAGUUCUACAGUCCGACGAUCGCAUCUAACCGGAGUGGGAGGGCACAUCAAGCGAUUUCACUCUCUUAAAGAAAAGGUUUUUAGGUAUUUUUGGUAUUAUAUAGUCUCUAAGGCCAGAAGGGGCUUAUAAUUGGAAUUCUCGGGUGCCAA	0.682
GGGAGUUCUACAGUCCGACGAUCUUUAUAUUGUUUGGUUGGUUGAAUAAAUUUGCGACACUCAAACACUUGAGGUGAUAGUUGUUAAAAACAAUACCAGUAUUUGAUCCAGUUUCAUCUCAACUAUGUUAUACUGGAAUUCUCGGGUGCCAA	0.326
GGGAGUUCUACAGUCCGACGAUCAAGUACUCAAGUCUUUUGGGUAGUGAGCUGGAAAGCCUACAGGAAAAGAGGGGUACCUGUUUUCAUUUGAAAACUUUGAUUCAUGGAACCUUUAAAACUAAUCUCAGAAAUGGAAUUCUCGGGUGCCAA	0.319

Block 4 — target: CCNA1, cyclin fold, Cln2 fusion (human); method: yeast growth competition, sequencing; medium: yeast; setting: weak parent motif; baseline: not given; direction: higher = stronger binding
Parent: SLBP docking peptide (human); ARYKRKLLINDFG; partner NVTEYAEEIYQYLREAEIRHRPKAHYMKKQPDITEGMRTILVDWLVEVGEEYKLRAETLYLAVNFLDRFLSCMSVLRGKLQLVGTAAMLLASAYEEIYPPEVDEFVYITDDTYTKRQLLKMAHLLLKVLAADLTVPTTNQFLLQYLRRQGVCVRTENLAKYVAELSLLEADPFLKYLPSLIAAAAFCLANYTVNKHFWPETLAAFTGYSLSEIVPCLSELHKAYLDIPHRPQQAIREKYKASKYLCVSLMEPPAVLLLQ
Substitution	normalised enrichment score
G13D	0.197
Y3H	0.261
I9G	0.0552
L8F	0.512
I9P	0.505
N10T	0.322
L8E	0.5
G13N	0.346
R5S	0.606
D11A	0.552
K6C	0.689
G13P	0.455
K6R	0.23
I9N	0.306
I9H	0.366
Y3T	0.313
L7K	0.242
K6W	0.545
R5P	0.177
I9F	0.193
Y3F	0.362

A few entries again (block 2):
Oligonucleotide	E-score
ACCAATAT	0.336
AACCTTGC	-0.11
GACTATGC	0.0268
GCGTGCCC	-0.345
ACTTCGCT	-0.0852
CATTTGGG	-0.0242
